Measurements gathered from unrelated publications.
“And” joins repeats or separate records; there may be more than shown. ± marks the error that the study gave.

`NC(=O)N/N=C/c1ccc(OCc2ccccc2)cc1` — result for “catalase activity (OD450)”: 0.108 a.u. (IMR-32; 50 µg/mL, 24 h; higher = more activity).
With `O=C(C[Se]C(=O)c1ccccc1)Nc1cccc(C(F)(F)F)c1` the mean TGI was 16.3 µM (NCI60 colon subpanel; NCI60 five-dose screen).
For `CC[C@H](C)[C@H](NC(=O)[C@@H](NC(=O)[C@@H]1CCCN1C(=O)[C@@H](NC(=O)[C@@H](NC(=O)[C@H](Cc1c[nH]cn1)NC(=O)[C@@H]1CCCN1C(=O)[C@H](CC(C)C)NC(=O)[C@@H](NC(=O)[C@H](Cc1c[nH]cn1)NC(=O)[C@H](CCCCN)NC(=O)[C@H](C)NC(=O)[C@H](CO)NC(=O)CNC(=O)[C@H](CC(C)C)NC(=O)[C@@H](NC(=O)CNC(=O)[C@H](Cc1ccccc1)NC(=O)[C@H](CC(C)C)NC(=O)CNC(=O)[C@@H](N)Cc1ccc(O)cc1)C(C)C)C(C)C)C(C)C)C(C)C)C(C)C)C(=O)N[C@@H](C)C(=O)N[C@@H](CCC(=O)O)C(=O)N[C@@H](Cc1c[nH]cn1)C(=O)N[C@@H](CC(C)C)C(N)=O`, the viability was 74.8 ± 1.67% (LO2; MTT; 40 µg/mL, 24 h).
`C[C@H]1O[C@@H]2C3=C(O[C@]2(C)[C@@]1(O)C=O)C(=O)c1c(O)cccc1C3=O` gave a selectivity index of 2.67 (MDA-MB-231 and Vero; MTT; reference: CC50 Vero over EC50 MDA-MB-231).
For `O=C(C[Se]C(=O)c1cccs1)Nc1cccc(C(F)(F)F)c1`, the CC50 was 18.9 µM (NCI60 colon subpanel; NCI60 five-dose screen).
`CC(C)(C)C(=O)OCOP(=O)(OCOC(=O)C(C)(C)C)C1CCCN(O)C1=O` (centres unmarked) gave a log TGI of -5.74 log M (NCI-H522).
For `O=C(O)c1ccc(-c2nc(-c3ccccc3Cl)c3sccn23)cc1`, “CD71 fluorescence intensity” read 0.86 and 0.78 and 0.87 (K562; erythroid differentiation, flow cytometry; 0.1 mM, 48 h, unit not given; reference: untreated).
For `CSCC[C@H](NC(=O)[C@@H](NC(=O)[C@H](CCC(N)=O)NC(=O)[C@H](CO)NC(=O)[C@@H](N)C(C)C)[C@@H](C)O)C(=O)N[C@@H](CCCNC(=N)N)C(=O)N[C@@H](CCC(N)=O)C(=O)N[C@H](C(=O)N[C@@H](C)C(=O)N[C@H](C(=O)N1CCC[C@H]1C(=O)N[C@@H](CC(C)C)C(=O)N[C@@H](CC(C)C)C(=O)N[C@@H](Cc1c[nH]c2ccccc12)C(=O)N[C@@H](Cc1ccccc1)C(=O)N[C@@H](Cc1c[nH]c2ccccc12)C(=O)N[C@H](C(=O)NCC(=O)N[C@@H](CO)C(=O)N[C@@H](CC(C)C)C(=O)NCCOCCOCCOCCOCCOCCOCCOCCOCCOCCOCCOCCOCCC(=O)N[C@@H](CS)C(N)=O)[C@@H](C)O)C(C)C)[C@@H](C)O`, the selectivity ratio was 4.2 ± 0.4 (BEAS-2B bronchial epithelial; cell binding, phage binding, refers to: output/input phage; 10 min, 37 °C; reference: control phage).
`Cc1cc(Oc2nc(N3CC[C@@H](c4ccncc4)C3)ncc2F)[nH]n1` has an IC50 of 66.1 µM (COLO 205; cell proliferation).
With `COc1ccc2c(c1)c(CC(=O)[Se]CC(=O)Nc1cccc(C(F)(F)F)c1)c(C)n2C(=O)c1ccc(Cl)cc1` the CC50 was 11 µM (NCI60 breast subpanel; NCI60 five-dose screen).
With `CC1CCC2C(C)C(OC(=O)CCC(=O)N3CCC(Nc4ccc(S(=O)(=O)NC(=O)c5ccc(N6CCN(CC7=C(c8ccc(Cl)cc8)CC(C)(C)CC7)CC6)cc5Oc5cnc6[nH]ccc6c5)cc4[N+](=O)[O-])CC3)OC3OC4(C)CCC1C32OO4` (centres unmarked) the viable cells was 30.3% (KCL-22; annexin V/PI flow cytometry, refers to: annexin V-/PI-; 3.2 µM, 24 h).
`Cc1ccc(C(C)C)cc1.Cc1ccc(C(C)C)cc1.Cc1ccc(C(C)C)cc1.Cc1ccc(C(C)C)cc1.O=S(=O)(O)C(F)(F)F.O=S(=O)(O)C(F)(F)F.O=S(=O)(O)C(F)(F)F.O=S(=O)(O)C(F)(F)F.c1ccc2c3c4ccccc4c(c2c1)-c1cn(nn1)-c1cc[n+](cc1)[Ru-]1[O]c2ccc4c5c(ccc(c25)=[O+]1)=[O+][Ru-]([O]4)[n+]1ccc(cc1)-n1cc(nn1)-c1c2ccccc2c(c2ccccc12)-c1cn(nn1)-c1cc[n+](cc1)[Ru-]1[O]c2ccc4c5c(ccc(c25)=[O+]1)=[O+][Ru-]([O]4)[n+]1ccc(cc1)-n1cc-3nn1` has an IC50 of 2.1 ± 0.03 µM (AGS; cell growth, MTT; 24 h, 20 µM preincubated in medium 0 h at 37 °C).
`CC[C@H](C)[C@H](NC(=O)[C@H](C)NC(=O)CNC(=O)[C@H](Cc1ccccc1)NC(=O)[C@H](CC(N)=O)NC(=O)[C@H](CC(N)=O)NC(=O)[C@H](CO)NC(=O)[C@H](CO)NC(=O)[C@H](Cc1c[nH]cn1)NC(=O)[C@@H](NC(=O)[C@H](CC(C)C)NC(=O)[C@H](Cc1ccccc1)NC(=O)[C@H](CC(N)=O)NC(=O)[C@H](C)NC(=O)[C@H](CC(C)C)NC(=O)[C@H](CCCNC(=N)N)NC(=O)[C@H](CCC(N)=O)NC(=O)[C@@H](NC(=O)[C@H](C)NC(=O)[C@@H]1CSSC[C@H](NC(=O)[C@@H](N)CCCCN)C(=O)N[C@@H](CC(N)=O)C(=O)N[C@@H]([C@@H](C)O)C(=O)N[C@@H](C)C(=O)N[C@@H]([C@@H](C)O)C(=O)N1)[C@@H](C)O)C(C)C)C(=O)N[C@@H](CC(C)C)C(=O)N[C@@H](CO)C(=O)N[C@@H](CO)C(=O)N[C@H](C(=O)N[C@@H](CC(N)=O)C(=O)N[C@H](C(=O)NCC(=O)N[C@@H](CO)C(=O)N[C@@H](CC(N)=O)C(=O)N[C@H](C(=O)N[C@@H](Cc1ccc(O)cc1)C(N)=O)[C@@H](C)O)C(C)C)[C@@H](C)O` — result for “Pearson colocalization coefficient”: under 0.3 (RIN-m5F; colocalization microscopy, refers to: γ-tubulin; 10 µM, 24 h).
The CC50 of `O=C(C[Se]C(=O)c1ccccc1Nc1ccccc1)Nc1cccc(C(F)(F)F)c1` is reported as 7.6 µM (NCI60 CNS subpanel; NCI60 five-dose screen).
`CC(C)C[C@H](NC(=O)[C@H](CC(=O)O)NC(=O)CNC(=O)[C@@H](N)CCCNC(=N)N)C(=O)N[C@@H](C)C(=O)N[C@H](C(=O)N[C@@H](CC(C)C)C(=O)N[C@@H](CCCNC(=N)N)C(=O)N[C@@H](CCC(N)=O)C(=O)N[C@@H](CC(C)C)C(=O)N[C@@H](C)C(=O)N[C@@H](CCC(N)=O)C(=O)N[C@@H](CCC(=O)O)C(=O)N[C@@H](CC(=O)O)C(=O)NCC(=O)N[C@H](C(=O)N[C@H](C(=O)NCC(=O)N[C@H](C(=O)N[C@@H](CCCNC(=N)N)C(=O)NCCOCCOCCOCCOCCOCCOCCOCCOCCOCCOCCOCCOCCC(=O)N[C@@H](CS)C(N)=O)C(C)C)C(C)C)C(C)C)[C@@H](C)O` gave a selectivity ratio of 2.3 ± 0.96 (H1437 lung adenocarcinoma; cell binding, phage binding, refers to: output/input phage; 10 min, 37 °C; reference: control phage).
`CSCC[C@H](N)C(=O)N[C@@H](C)C(=O)N[C@@H](Cc1c[nH]c2ccccc12)C(=O)N[C@@H](Cc1c[nH]cn1)C(=O)N[C@@H](CC(=O)O)C(=O)N[C@@H](CC(=O)O)C(=O)N[C@@H](CCC(=O)O)C(=O)N[C@@H](CCC(=O)O)C(=O)N[C@@H](Cc1ccccc1)C(=O)N[C@@H](C)C(=O)N[C@@H](CCCNC(=N)N)C(=O)N[C@@H](CCCNC(=N)N)C(=O)N[C@@H](CCCNC(=N)N)C(=O)N[C@@H](CCCNC(=N)N)C(=O)NCCCCCC(=O)NCCCCC(NC(=O)CCCCCNC(=O)[C@H](CCCNC(=N)N)NC(=O)[C@H](CCCNC(=N)N)NC(=O)[C@H](CCCNC(=N)N)NC(=O)[C@H](CCCNC(=N)N)NC(=O)[C@H](C)NC(=O)[C@H](Cc1ccccc1)NC(=O)[C@H](CCC(=O)O)NC(=O)[C@H](CCC(=O)O)NC(=O)[C@H](CC(=O)O)NC(=O)[C@H](CC(=O)O)NC(=O)[C@H](Cc1c[nH]cn1)NC(=O)[C@H](Cc1c[nH]c2ccccc12)NC(=O)[C@H](C)NC(=O)[C@@H](N)CCSC)C(=O)NCCCCC(NC(=O)C(CCCCNC(=O)CCCCCNC(=O)[C@H](CCCNC(=N)N)NC(=O)[C@H](CCCNC(=N)N)NC(=O)[C@H](CCCNC(=N)N)NC(=O)[C@H](CCCNC(=N)N)NC(=O)[C@H](C)NC(=O)[C@H](Cc1ccccc1)NC(=O)[C@H](CCC(=O)O)NC(=O)[C@H](CCC(=O)O)NC(=O)[C@H](CC(=O)O)NC(=O)[C@H](CC(=O)O)NC(=O)[C@H](Cc1c[nH]cn1)NC(=O)[C@H](Cc1c[nH]c2ccccc12)NC(=O)[C@H](C)NC(=O)[C@@H](N)CCSC)NC(=O)CCCCCNC(=O)[C@H](CCCNC(=N)N)NC(=O)[C@H](CCCNC(=N)N)NC(=O)[C@H](CCCNC(=N)N)NC(=O)[C@H](CCCNC(=N)N)NC(=O)[C@H](C)NC(=O)[C@H](Cc1ccccc1)NC(=O)[C@H](CCC(=O)O)NC(=O)[C@H](CCC(=O)O)NC(=O)[C@H](CC(=O)O)NC(=O)[C@H](CC(=O)O)NC(=O)[C@H](Cc1c[nH]cn1)NC(=O)[C@H](Cc1c[nH]c2ccccc12)NC(=O)[C@H](C)NC(=O)[C@@H](N)CCSC)C(N)=O` (some centres unmarked) has a mRNA level of 1.2 (mouse bone marrow macrophages; RT-qPCR, refers to: Mapk11 (p38β); concentration not given, mean, unit not given, together with: RANKL; reference: RANKL alone).
`COc1ccccc1-c1ccncc1C(=O)Nc1nnc(OCc2ccc(Cl)cc2)s1` gave a colony survival of 94.1% (HCT-116 BRCA2 wild-type; 8 µM; reference: untreated).

Repeated from above:
`Cc1cc(Oc2nc(N3CC[C@@H](c4ccncc4)C3)ncc2F)[nH]n1` has an IC50 of 66.1 µM (COLO 205; cell proliferation).
